{"data": "Experimental data pooled from the literature", "odorant-binding protein 24": "odorant-binding protein 24 (Monochamus alternatus, UniProt A0A1I9HZN3)", "TFEB": "Transcription factor EB (TFEB, Homo sapiens, UniProt P19484)", "HRH4": "Histamine H4 receptor (HRH4, Homo sapiens, UniProt Q9H3N8)", "note": "Each line is one published result; not all experiments were run side by side. “And” joins repeats or separate records; there may be more than shown. ± gives the spread as reported.", "sequence of UniProt P19484 (whole entry, looked up)": "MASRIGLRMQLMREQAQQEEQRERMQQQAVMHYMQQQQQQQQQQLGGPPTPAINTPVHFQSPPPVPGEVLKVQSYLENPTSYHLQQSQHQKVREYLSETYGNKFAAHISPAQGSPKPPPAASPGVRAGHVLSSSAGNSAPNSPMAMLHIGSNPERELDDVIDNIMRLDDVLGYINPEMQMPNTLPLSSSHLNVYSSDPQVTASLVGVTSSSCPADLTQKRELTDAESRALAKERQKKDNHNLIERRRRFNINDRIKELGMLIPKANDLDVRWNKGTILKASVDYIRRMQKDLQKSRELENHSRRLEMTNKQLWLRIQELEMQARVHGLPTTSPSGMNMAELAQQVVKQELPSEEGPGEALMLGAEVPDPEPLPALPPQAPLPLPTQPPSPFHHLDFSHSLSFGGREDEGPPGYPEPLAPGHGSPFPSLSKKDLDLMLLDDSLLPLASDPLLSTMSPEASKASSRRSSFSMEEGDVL", "sequence of UniProt Q9H3N8 (whole entry, looked up)": "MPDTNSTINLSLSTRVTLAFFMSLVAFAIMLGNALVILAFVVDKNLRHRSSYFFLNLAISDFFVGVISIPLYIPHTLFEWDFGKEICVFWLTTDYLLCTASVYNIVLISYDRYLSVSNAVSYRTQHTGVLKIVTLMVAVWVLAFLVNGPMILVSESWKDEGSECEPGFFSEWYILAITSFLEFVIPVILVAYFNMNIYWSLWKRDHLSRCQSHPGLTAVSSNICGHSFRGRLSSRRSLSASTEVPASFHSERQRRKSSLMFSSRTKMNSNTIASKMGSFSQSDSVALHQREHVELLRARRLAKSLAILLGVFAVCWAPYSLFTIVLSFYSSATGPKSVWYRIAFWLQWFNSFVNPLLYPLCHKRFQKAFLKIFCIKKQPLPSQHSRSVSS", "sequence of UniProt P35372 (whole entry, looked up)": "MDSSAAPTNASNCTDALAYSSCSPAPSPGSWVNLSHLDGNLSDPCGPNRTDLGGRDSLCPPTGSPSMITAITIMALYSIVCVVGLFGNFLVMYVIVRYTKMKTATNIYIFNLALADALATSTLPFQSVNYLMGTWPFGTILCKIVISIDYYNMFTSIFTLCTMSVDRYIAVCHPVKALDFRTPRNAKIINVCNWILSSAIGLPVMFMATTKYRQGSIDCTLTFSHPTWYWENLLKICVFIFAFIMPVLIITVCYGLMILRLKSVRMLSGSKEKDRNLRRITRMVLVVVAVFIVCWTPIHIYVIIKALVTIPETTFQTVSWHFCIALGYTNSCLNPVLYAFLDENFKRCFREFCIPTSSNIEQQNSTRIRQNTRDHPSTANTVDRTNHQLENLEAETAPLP", "sequence of UniProt Q08460 (whole entry, looked up)": "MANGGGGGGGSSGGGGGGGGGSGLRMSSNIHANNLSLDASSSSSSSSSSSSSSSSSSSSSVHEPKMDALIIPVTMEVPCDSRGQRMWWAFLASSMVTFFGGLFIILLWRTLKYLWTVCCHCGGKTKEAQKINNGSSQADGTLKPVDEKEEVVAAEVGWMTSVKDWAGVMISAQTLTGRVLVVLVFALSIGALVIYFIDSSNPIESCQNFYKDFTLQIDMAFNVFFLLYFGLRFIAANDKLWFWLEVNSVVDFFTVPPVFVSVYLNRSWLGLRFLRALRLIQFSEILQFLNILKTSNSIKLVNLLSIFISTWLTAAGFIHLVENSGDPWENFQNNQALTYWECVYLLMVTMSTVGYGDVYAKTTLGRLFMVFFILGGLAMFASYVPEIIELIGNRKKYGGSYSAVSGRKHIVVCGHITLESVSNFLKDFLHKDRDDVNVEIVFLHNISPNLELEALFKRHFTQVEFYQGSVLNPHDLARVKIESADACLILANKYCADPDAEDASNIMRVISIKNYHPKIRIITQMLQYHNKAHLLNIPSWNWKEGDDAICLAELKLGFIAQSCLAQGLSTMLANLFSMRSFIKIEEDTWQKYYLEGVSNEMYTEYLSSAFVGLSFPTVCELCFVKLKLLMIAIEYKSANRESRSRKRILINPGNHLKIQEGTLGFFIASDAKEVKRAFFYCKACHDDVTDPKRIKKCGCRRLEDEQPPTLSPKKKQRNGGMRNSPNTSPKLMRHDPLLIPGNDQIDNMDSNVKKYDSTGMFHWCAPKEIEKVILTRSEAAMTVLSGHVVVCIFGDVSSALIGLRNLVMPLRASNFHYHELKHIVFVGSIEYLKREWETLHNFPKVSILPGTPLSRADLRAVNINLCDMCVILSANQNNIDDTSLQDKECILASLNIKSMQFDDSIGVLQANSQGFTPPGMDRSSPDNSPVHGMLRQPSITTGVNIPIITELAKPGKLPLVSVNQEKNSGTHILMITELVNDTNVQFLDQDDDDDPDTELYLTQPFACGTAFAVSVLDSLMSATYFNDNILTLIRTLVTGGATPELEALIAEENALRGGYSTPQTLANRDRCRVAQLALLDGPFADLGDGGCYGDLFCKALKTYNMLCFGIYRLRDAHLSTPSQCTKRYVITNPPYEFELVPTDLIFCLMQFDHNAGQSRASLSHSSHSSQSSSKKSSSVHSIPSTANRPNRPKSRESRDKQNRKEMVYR", "sequence of UniProt P63086 (whole entry, looked up)": "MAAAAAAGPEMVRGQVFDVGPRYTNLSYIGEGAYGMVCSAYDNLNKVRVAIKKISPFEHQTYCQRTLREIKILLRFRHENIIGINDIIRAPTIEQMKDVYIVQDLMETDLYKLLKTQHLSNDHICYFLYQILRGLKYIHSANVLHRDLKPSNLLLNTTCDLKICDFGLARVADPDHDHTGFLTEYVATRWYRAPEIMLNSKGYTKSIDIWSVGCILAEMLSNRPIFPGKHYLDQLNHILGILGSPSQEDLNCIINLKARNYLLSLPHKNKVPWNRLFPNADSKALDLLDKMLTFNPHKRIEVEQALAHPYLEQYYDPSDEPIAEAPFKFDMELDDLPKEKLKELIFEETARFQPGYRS"}
{"Substance": "C=C(C)[C@@H]1CC=C(C)CC1", "target": "odorant-binding protein 24", "assay": "competitive fluorescence binding", "setting": "pH 7.4, together with: 1-NPN", "endpoint": "Ki", "result": "> 50 µM"}
{"Substance": "CC[N+](CC)(CC)CC", "target": "Kcnma1 (Mus musculus, UniProt Q08460)", "assay": "ion current, blocker, inside-out patch, cytosolic", "setting": "open-channel block, together with: Ca2+ 300 µM", "endpoint": "Kb", "result": "49000 ± 3200 µM"}
{"Substance": "Nc1ncnc2c1ncn2[C@@H]1O[C@H](COP(=O)(O)OP(=O)(O)O)[C@@H](O)[C@H]1O", "target": "Mapk1 (Rattus norvegicus, UniProt P63086)", "assay": "ATP-competitive component", "setting": "together with: substrate Sub-F 15 µM, varied MgATP", "endpoint": "Ki", "result": "132 ± 28 µM"}
{"Substance": "CC[C@@H](C(=O)[C@@H](C)[C@@H](O)[C@H](C)CCc1ccc(C)c(O)c1C(=O)O)[C@H]1O[C@](CC)([C@H]2CC[C@](O)(CC)[C@H](C)O2)C[C@@H]1C", "target": "TFEB", "assay": "nuclear translocation, activator, GFP-TFEB imaging", "system": "AML12", "setting": "2 h", "scale": "reference: Torin 1", "endpoint": "AC50", "result": "6.05 µM"}
{"Substance": "cholecystokinin octapeptide", "target": "PKCθ rat", "assay": "kinase activity", "setting": "10 nM, immunoprecipitated enzyme, together with: PKC substrate peptide", "scale": "reference: untreated", "endpoint": "remaining activity", "result": "139 ± 4%"}
{"Substance": "N=C(N)NCCCCCCCCCCCCNC(=N)NCCCc1cnc(N)s1", "target": "HRH4", "assay": "ligand displacement, radioligand", "setting": "cell membranes", "endpoint": "Ki", "result": "0.339 µM"}
{"Substance": "CC(=O)OC[C@H]1O[C@@H]([S-])[C@H](OC(C)=O)[C@@H](OC(C)=O)[C@@H]1OC(C)=O.CCP(CC)CC.[Au+]", "target": "TFEB", "assay": "nuclear translocation, activator, GFP-TFEB imaging", "system": "AML12", "setting": "2 h", "scale": "reference: Torin 1", "endpoint": "AC50", "result": "2.35 µM"}
{"Substance": "CC(C)[C@@H](CN1CCC(c2ccsc2)CC1)NC(=O)[C@H]1Cc2ccc(O)cc2CN1", "target": "OPRM1 (Homo sapiens, UniProt P35372)", "assay": "antagonist", "setting": "together with: DAMGO", "endpoint": "Kb", "result": "0.00393 ± 0.00073 µM"}
{"Substance": "Cc1nc(N)sc1CCCNC(=N)NCCCCCCCCNC(=N)NCCCc1sc(N)nc1C", "target": "HRH4", "assay": "GTPγS binding, antagonist", "setting": "cell membranes", "endpoint": "Kb", "result": "148 µM"}
{"Substance": "CC(C)[C@H](N)C(=O)O", "target": "Methyl-accepting chemotaxis protein Tlp3, sensing domain (Campylobacter jejuni, UniProt Q0P864)", "assay": "binding, thermal shift", "setting": "zero heat capacity change at Tm", "endpoint": "Kd", "result": "2120 ± 505 µM"}
{"Substance": "CC1=CCC(=C(C)C)CC1", "target": "odorant-binding protein 24", "assay": "competitive fluorescence binding", "setting": "pH 7.4, together with: 1-NPN", "endpoint": "Ki", "result": "< 20 µM and 13.7 µM"}
{"note": "For quick reference, copied from above:"}
{"Substance": "cholecystokinin octapeptide", "target": "PKCθ rat", "assay": "kinase activity", "setting": "10 nM, immunoprecipitated enzyme, together with: PKC substrate peptide", "scale": "reference: untreated", "endpoint": "remaining activity", "result": "139 ± 4%"}
